Published values of several laboratories.
Compare with care: the assays were run in different laboratories. ± gives the spread as reported. Where no end group is shown, it is not given here.
B1: side-chain stapled; chain AACVSFQNLDCG (also: sidechain bridge or staple (positions not given here))
Sequence of UniProt O75388 (whole entry, looked up): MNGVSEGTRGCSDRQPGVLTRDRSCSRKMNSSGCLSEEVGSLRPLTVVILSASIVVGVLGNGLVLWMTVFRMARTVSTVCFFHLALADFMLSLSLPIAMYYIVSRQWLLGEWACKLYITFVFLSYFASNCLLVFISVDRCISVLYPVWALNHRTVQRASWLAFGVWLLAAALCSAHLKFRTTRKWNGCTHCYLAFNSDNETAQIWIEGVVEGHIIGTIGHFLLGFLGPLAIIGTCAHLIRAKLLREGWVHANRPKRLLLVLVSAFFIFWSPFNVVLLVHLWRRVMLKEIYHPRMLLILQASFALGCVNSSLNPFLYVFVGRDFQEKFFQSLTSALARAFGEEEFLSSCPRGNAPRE
Sequence of UniProt P49662 (whole entry, looked up): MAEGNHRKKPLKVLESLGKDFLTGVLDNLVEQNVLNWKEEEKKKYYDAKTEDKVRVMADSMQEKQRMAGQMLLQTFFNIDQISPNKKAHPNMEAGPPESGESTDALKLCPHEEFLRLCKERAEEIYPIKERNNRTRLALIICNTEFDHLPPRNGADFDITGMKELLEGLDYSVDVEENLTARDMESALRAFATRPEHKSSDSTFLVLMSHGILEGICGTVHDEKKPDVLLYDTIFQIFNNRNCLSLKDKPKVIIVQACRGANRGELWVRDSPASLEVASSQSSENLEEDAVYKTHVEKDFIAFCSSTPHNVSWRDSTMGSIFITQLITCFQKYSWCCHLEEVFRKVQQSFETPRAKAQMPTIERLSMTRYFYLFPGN
Sequence of UniProt P48147 (whole entry, looked up): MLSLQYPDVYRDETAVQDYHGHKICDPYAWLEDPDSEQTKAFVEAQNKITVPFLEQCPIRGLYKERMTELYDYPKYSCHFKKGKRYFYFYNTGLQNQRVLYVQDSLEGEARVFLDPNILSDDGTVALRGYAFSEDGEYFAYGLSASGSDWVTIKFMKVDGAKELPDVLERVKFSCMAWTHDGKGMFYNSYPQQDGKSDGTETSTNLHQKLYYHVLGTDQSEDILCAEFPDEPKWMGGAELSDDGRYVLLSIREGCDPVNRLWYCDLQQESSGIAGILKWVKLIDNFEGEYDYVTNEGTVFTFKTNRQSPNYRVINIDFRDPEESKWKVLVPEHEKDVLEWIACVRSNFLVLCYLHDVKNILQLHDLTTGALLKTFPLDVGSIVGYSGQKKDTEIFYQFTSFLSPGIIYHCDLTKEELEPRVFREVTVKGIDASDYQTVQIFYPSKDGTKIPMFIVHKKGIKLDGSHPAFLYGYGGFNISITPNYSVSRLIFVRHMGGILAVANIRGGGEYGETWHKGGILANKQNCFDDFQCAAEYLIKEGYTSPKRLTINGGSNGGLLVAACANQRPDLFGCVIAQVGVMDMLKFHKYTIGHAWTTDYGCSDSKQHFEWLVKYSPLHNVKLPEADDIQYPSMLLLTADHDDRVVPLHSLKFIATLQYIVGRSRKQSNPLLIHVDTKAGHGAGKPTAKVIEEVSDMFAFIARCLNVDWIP
Sequence of UniProt O60656 (whole entry, looked up): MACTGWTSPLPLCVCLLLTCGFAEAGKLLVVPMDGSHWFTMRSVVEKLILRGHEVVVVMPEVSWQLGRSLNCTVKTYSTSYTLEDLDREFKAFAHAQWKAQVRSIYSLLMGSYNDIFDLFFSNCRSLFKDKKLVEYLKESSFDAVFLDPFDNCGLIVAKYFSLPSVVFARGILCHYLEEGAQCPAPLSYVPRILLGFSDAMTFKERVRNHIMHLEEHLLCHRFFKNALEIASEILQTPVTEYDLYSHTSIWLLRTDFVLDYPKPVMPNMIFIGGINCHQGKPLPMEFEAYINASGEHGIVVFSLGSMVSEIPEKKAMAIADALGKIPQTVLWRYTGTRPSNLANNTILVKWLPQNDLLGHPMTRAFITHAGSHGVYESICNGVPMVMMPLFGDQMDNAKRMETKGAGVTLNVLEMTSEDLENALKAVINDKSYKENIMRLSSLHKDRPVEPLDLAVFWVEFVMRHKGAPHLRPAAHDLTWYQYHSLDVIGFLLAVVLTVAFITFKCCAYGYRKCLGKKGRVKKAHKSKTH
Sequence of UniProt P09038 (whole entry, looked up): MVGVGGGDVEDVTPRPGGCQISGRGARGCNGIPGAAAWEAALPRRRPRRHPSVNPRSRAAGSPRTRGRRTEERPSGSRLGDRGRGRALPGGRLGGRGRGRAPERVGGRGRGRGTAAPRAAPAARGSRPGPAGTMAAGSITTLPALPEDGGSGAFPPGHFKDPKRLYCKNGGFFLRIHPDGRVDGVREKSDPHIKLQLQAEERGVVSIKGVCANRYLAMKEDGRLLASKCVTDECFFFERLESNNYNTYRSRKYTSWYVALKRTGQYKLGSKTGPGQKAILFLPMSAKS
Sequence of UniProt P03372 (whole entry, looked up): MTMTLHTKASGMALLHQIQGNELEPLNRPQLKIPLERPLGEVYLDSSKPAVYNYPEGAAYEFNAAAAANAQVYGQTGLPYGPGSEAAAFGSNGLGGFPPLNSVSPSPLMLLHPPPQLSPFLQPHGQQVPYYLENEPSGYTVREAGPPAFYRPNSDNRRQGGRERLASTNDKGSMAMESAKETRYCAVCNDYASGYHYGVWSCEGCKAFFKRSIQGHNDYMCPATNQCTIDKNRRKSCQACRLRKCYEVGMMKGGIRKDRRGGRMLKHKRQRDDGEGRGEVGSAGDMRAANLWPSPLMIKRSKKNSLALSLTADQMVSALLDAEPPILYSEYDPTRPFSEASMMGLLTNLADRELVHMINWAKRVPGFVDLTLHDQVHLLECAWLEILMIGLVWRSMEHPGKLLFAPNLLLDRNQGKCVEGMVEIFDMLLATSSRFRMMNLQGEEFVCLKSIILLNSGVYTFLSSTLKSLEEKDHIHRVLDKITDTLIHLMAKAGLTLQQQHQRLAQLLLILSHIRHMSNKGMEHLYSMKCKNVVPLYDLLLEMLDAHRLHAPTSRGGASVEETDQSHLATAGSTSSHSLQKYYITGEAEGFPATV
Sequence of UniProt Q00195 (whole entry, unmodified, looked up): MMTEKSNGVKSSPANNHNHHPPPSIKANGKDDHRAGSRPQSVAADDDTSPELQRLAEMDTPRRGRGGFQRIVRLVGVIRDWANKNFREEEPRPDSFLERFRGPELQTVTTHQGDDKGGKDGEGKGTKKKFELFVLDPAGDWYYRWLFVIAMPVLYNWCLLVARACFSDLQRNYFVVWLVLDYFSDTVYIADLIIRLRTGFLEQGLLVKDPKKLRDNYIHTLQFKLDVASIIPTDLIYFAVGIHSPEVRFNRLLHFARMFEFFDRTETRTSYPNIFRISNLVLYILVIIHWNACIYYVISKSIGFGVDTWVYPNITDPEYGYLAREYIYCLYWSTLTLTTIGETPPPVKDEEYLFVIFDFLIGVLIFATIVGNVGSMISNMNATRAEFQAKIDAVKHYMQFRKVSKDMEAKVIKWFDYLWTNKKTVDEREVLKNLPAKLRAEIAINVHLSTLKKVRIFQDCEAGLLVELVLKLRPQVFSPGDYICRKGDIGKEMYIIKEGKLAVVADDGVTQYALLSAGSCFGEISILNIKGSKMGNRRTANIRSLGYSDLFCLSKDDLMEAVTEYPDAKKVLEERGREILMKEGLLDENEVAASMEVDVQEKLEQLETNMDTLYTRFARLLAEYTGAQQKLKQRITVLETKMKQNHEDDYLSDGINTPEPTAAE
Sequence of UniProt P94556 (whole entry, looked up): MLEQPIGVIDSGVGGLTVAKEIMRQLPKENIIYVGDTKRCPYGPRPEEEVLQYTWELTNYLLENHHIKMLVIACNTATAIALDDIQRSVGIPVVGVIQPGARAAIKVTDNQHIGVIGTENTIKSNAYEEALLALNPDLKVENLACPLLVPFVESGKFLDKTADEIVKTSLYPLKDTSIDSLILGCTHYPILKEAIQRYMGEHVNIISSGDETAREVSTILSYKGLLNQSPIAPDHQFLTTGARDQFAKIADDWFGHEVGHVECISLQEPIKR

| Substance | tested on | assay | system | conditions | scale | endpoint | result |
| --- | --- | --- | --- | --- | --- | --- | --- |
| N[C@H](CCC(=O)O)C(=O)O | racE (Bacillus subtilis, UniProt P94556) | enzyme activity, inhibitor | – | – | – | binding free energy | -5.31 kcal/mol |
| c1ncc2[nH]cnc2n1 | cobT (Desulfitobacterium hafniense, UniProt Q24VN9) | alpha-ribazole phosphate formation, substrate | – | 250 µM, 30 min, pH 7.5, 30 °C, added: 2 mM NaMN | – | conversion | > 99% |
| Nc1ncnc2c1ncn2[C@@H]1O[C@H](COP(=O)(O)O)[C@@H](O)[C@H]1O.O | Caspase-4 (CASP4, Homo sapiens, UniProt P49662) | enzyme activity | – | 33 µM, added: LEHD substrate | baseline: solvent control | remaining activity | 20.9% |
| O=S(=O)(Nc1ccccc1Cl)C1CC2OC1C(c1ccc(O)cc1)=C2c1ccc(O)cc1 (stereo not drawn) | Estrogen receptor (ESR1, Homo sapiens, UniProt P03372) | reporter gene, antagonist | HepG2 | added: estradiol 10 nM | baseline: E2 response, negative is inverse agonism | efficacy | 89 ± 4% |
| Nc1nc2c(ncn2[C@@H]2O[C@@H]3COP(=O)(O)O[C@H]3[C@H]2O)c(=O)[nH]1 | Cnga2 (Rattus norvegicus, UniProt Q00195, C460W/E583M) | ion current, agonist, inside-out patch clamp | – | C460W/E583M channel, +50 mV | baseline: cAMP at saturation | relative maximal current | 0.84 ± 0.1 |
| Ac-ALPCA-NH2 (N-acetyl, C-amide) | Fibroblast growth factor 2, with pentraxin 3 (Homo sapiens, UniProt P09038) | binding to PTX3, competitor, surface plasmon resonance | peptide | added: 150 nM free FGF2 | – | ID50 | > 3000 µM |
| O=CCO | aldehyde oxidase F13 (Pseudomonas sp. MX-058) | substrate, peroxidase-coupled H2O2 | – | pH 7.0, 30 °C, added: O2 co-substrate | – | Km | 20 mM |
| CCCCCCCCCCSc1nc2c([nH]1)c(=O)n(C)c(=O)n2C | Nr3c1 (Rattus norvegicus, UniProt P06536) | reporter gene, antagonist, MMTV-luciferase | T47D/A1-2 | 10 µM, 24 h, added: 5 nM dexamethasone | baseline: maximal activity | remaining activity | 88% |
| UGT1A9 (Homo sapiens, UniProt O60656) | O=C(c1ccccc1)c1ccc(O)cc1 | steady-state kinetics | – | pH 7.4, 37 °C | – | Vmax | 0.00244 µmol/min/mg |
| NS(=O)(=O)OC[C@@H]1C[C@@H](n2ccc3c(N[C@H]4CCc5ccccc54)ncnc32)C[C@@H]1O | EGFR (Homo sapiens, UniProt P00533, L858R) | western blot | H3255 | 1 µM, 2 h pretreatment | – | degrader-induced degradation | inhibited |
| B1 | PREP (Homo sapiens, UniProt P48147) | enzyme activity | – | 200 µM, 37 °C | baseline: FAPα over PREP | selectivity ratio | 3 fold |
| COc1cccc(C(=O)Nc2cccc(-c3nc4ncccn4c3C)c2)c1 | GPR32 (Homo sapiens, UniProt O75388) | β-arrestin recruitment, agonist, PathHunter | CHO cells expressing GPR32 | concentration not given | baseline: vehicle | efficacy | 46.6% |

Some of these lines once more:
| Substance | tested on | assay | system | conditions | scale | endpoint | result |
| --- | --- | --- | --- | --- | --- | --- | --- |
| O=S(=O)(Nc1ccccc1Cl)C1CC2OC1C(c1ccc(O)cc1)=C2c1ccc(O)cc1 (stereo not drawn) | Estrogen receptor (ESR1, Homo sapiens, UniProt P03372) | reporter gene, antagonist | HepG2 | added: estradiol 10 nM | baseline: E2 response, negative is inverse agonism | efficacy | 89 ± 4% |
| CCCCCCCCCCSc1nc2c([nH]1)c(=O)n(C)c(=O)n2C | Nr3c1 (Rattus norvegicus, UniProt P06536) | reporter gene, antagonist, MMTV-luciferase | T47D/A1-2 | 10 µM, 24 h, added: 5 nM dexamethasone | baseline: maximal activity | remaining activity | 88% |
